{"data": "Published values pooled from the literature", "note": "Compare with care: the assays were run in different laboratories. ± marks the error that the study gave.", "chain of UniProt Q13418 (whole entry, looked up)": "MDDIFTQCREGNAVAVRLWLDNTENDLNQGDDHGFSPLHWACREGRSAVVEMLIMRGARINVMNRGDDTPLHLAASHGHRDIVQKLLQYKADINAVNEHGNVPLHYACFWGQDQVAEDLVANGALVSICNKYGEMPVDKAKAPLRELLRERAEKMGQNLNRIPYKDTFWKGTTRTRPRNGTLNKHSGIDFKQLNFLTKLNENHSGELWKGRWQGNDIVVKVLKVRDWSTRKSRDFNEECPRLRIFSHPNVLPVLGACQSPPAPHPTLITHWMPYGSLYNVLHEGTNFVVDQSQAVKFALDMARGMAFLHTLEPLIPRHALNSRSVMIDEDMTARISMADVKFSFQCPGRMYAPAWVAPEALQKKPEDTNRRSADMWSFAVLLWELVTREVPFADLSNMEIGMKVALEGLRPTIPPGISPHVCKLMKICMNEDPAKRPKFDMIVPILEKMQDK"}
{"Compound": "CC(C)C(=O)Nc1ccc([N+](=O)[O-])c(C(F)(F)F)c1", "tested on": "human coronavirus OC43", "assay": "virus-induced cell killing", "system": "MRC-5", "conditions": "screen", "endpoint": "maximum inhibition", "value": "21.1%"}
{"Compound": "COc1c(C)c2c(c(O)c1C/C=C(\\C)CCC(=O)O)C(=O)OC2", "tested on": "COLO 205", "assay": "cell proliferation", "endpoint": "IC50", "value": "288 nM"}
{"Compound": "O=C(c1ccccc1)c1cc2c(-c3ccccc3)c(O)ccc2o1", "tested on": "FM3A", "assay": "cell proliferation", "conditions": "48 h", "endpoint": "IC50", "value": "37000 ± 18000 nM"}
{"Compound": "Clc1nc[n]([Au][PH](c2ccccc2)(c2ccccc2)c2ccccc2)c1Cl", "tested on": "NCI-H661 HMOX1-GFP high", "assay": "cell viability, MTT", "conditions": "48 h", "endpoint": "IC50", "value": "690 nM"}
{"Compound": "C[C@H]1O[C@@H](O[C@H]2[C@@H](O)C[C@H](O[C@H]3[C@@H](O)C[C@H](O[C@H]4CC[C@@]5(C)[C@H](CC[C@@H]6[C@@H]5C[C@@H](O)[C@]5(C)[C@@H](C7=CC(=O)OC7)CC[C@]65O)C4)O[C@@H]3C)O[C@@H]2C)C[C@H](O)[C@@H]1O", "tested on": "ReNcell VM", "assay": "intracellular glutathione level, monochlorobimane", "conditions": "24 h", "endpoint": "IC50", "value": "840 ± 20 nM"}
{"Compound": "C=CC(=O)N[C@H]1C=C(C)c2c(-c3cnc4ccccc4c3)c3c(N)ncnc3n2C1", "tested on": "NCI-H2073 KI SVD", "assay": "cell proliferation, CellTiter-Glo", "conditions": "72 h", "endpoint": "IC50", "value": "8.11 nM"}
{"Compound": "CCCCCCCNC(=O)CP(=O)(O)O", "tested on": "Vero CCL-81", "assay": "cytotoxicity", "endpoint": "IC50", "value": "43 µg/mL"}
{"Compound": "O=c1c(O)c(-c2ccc(O)c(O)c2)oc2cc(O)cc(O)c12", "tested on": "ACE2-SNAP-HEK293T", "assay": "cell viability, CCK-8", "conditions": "24 h", "endpoint": "IC50", "value": "121000 nM"}
{"Compound": "CN1CCN(S(=O)(=O)c2cc([N+](=O)[O-])ccc2N(CCOS(C)(=O)=O)CCOS(C)(=O)=O)CC1", "tested on": "HCT-116 overexpressing AKR1C2", "assay": "cell growth, sulforhodamine B", "conditions": "96 h", "endpoint": "IC50", "value": "8900 nM"}
{"Compound": "CC[C@@]1(O)C(=O)OCc2c1cc1n(c2=O)Cc2cc3ccccc3nc2-1", "tested on": "uveal melanoma cell lines", "assay": "cell viability", "conditions": "average over cell lines", "endpoint": "IC50", "value": "334 nM"}
{"Compound": "C[C@H]1CN(c2n[nH]c3nc(N[C@H]4CC[C@H](NS(=O)(=O)CCC(F)(F)F)CC4)ncc23)CCO1", "tested on": "ILK (Homo sapiens, UniProt Q13418)", "assay": "biochemical", "endpoint": "IC50", "value": "≥ 20000 nM"}
{"Compound": "CC(C)(C)c1ccc(S(=O)(=O)NCc2ccc(C(=O)Nc3cccnc3)cc2)cc1", "tested on": "human coronavirus OC43", "assay": "virus-induced cell killing", "system": "MRC-5", "conditions": "screen", "endpoint": "maximum inhibition", "value": "26.9%"}
{"Compound": "O=C1CCC(N2C(=O)c3cccc4c(Cc5cnn(C6CCN(C(=O)C7(O)CCC7)CC6)c5)ccc2c34)C(=O)N1 (centres unmarked)", "tested on": "NCI-H929", "assay": "cell proliferation", "conditions": "72 h", "endpoint": "IC50", "value": "0.007 ± 0.003 nM"}
{"Compound": "CCCCC/C=C\\C/C=C\\C/C=C\\C/C=C\\CCCC(=O)NCCO", "tested on": "ReNcell VM", "assay": "intracellular glutathione level, monochlorobimane", "conditions": "24 h", "endpoint": "IC50", "value": "6400 ± 330 nM"}
{"note": "Excerpt of the above:"}
{"Compound": "C[C@H]1O[C@@H](O[C@H]2[C@@H](O)C[C@H](O[C@H]3[C@@H](O)C[C@H](O[C@H]4CC[C@@]5(C)[C@H](CC[C@@H]6[C@@H]5C[C@@H](O)[C@]5(C)[C@@H](C7=CC(=O)OC7)CC[C@]65O)C4)O[C@@H]3C)O[C@@H]2C)C[C@H](O)[C@@H]1O", "tested on": "ReNcell VM", "assay": "intracellular glutathione level, monochlorobimane", "conditions": "24 h", "endpoint": "IC50", "value": "840 ± 20 nM"}
{"Compound": "COc1c(C)c2c(c(O)c1C/C=C(\\C)CCC(=O)O)C(=O)OC2", "tested on": "COLO 205", "assay": "cell proliferation", "endpoint": "IC50", "value": "288 nM"}
